# Experimental data collected from several papers.
# Each numbered part is a random draw from the data of one study; scales do not carry over between parts.

# Block 1
# Target: Histone acetyltransferase KAT6A, both winged helices, GST fusion (KAT6A, Homo sapiens, UniProt Q92794, residues 1-181)
# Method: protein binding microarray
# Form: double-stranded DNA, one strand shown
# Sample: in vitro
# Tested at: not given
# Setting: 8-mer, flanks averaged, mean of 2 arrays, mostly near background
# Baseline: not given
# Direction: higher = stronger binding
# Construct (chain): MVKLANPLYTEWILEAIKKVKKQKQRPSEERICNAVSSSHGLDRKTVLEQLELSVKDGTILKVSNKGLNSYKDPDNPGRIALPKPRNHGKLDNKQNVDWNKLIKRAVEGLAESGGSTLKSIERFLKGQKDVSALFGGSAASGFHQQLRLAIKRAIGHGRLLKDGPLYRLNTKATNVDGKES
Strand,E-score
ATACTGCC,-0.0448
ACTAGTAT,-0.155
CAACGAAG,-0.077
AATCCTGT,-0.0992

# Block 2
# Target: Sal-like protein 4, full length isoform B (SALL4, Homo sapiens, UniProt Q9UJQ4-2, residues 1-616)
# Method: universal PBM
# Form: double-stranded DNA, one strand shown
# Sample: in vitro
# Tested at: not given
# Setting: 8-mer, flanks averaged, mean of replicates
# Direction: higher = stronger binding
Strand,E-score
CCGACAAA,0.0883
CCACGACG,-0.2
AAAATGCT,0.126
CGCGGGAG,-0.301
AGCGGTAT,0.0389

# Block 3
# Target: Interferon regulatory factor 7, full length, phosphomimetic (IRF7, Homo sapiens, UniProt Q92985, residues 1-503, S101K/S471D/S472D/S475D/S476D/S477D/S483D/S484D/S487D)
# Method: protein-binding microarray
# Form: double-stranded DNA, one strand shown
# Sample: in vitro
# Tested at: 250 nM
# Setting: 60-bp whole probe
# Added: salmon DNA 0.4 mg/ml
# Baseline: random background probes
# Direction: higher = stronger binding
# Residues (chain): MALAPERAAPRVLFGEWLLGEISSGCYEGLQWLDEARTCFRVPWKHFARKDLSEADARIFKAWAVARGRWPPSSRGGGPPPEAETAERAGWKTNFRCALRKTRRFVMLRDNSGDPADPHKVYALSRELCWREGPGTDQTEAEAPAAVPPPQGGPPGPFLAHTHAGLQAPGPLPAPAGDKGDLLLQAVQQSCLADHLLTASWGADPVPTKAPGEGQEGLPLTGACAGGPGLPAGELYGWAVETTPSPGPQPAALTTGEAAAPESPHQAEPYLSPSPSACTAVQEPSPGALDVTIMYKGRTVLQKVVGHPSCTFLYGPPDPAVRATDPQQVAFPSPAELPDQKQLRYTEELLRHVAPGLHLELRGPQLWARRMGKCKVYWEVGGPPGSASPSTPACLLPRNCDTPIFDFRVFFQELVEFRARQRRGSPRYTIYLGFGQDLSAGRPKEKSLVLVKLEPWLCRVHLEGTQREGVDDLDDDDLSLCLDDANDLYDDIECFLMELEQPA
Strand,log fluorescence [z-score]
GCCTAGCACCTTTTATTTTTTTTATTTATGTGCTAGGTCTTGATTCGCTTGACGCTGCTG,3.07
GCCTAGCACGACGGACTAGGGTTTCGGGACGTGCTAGTCTTGATTCGCTTGACGCTGCTG,1.42
GCCTAGCACTCAAGCCTCAGTCCTCACACTGTGCTAGTCTTGATTCGCTTGACGCTGCTG,-0.101

# Other studies, line by line
Molecule,target,test,system,setting,scale,measurement,value
"PhoQ, residues 284 288 289 292 302 303 MLMVEA","PhoP, residues 12 14 15 18 19 LWHVM (Escherichia coli, UniProt P23836)","Sort-seq, measured: YFP reporter",E. coli,"PhoQ-PhoP variant library, added: 10 µM Mg2+","baseline: high Mg2+ state, higher = stronger signaling",fold induction,3.54

# Some of these lines once more (block 2):
Strand,E-score
CCACGACG,-0.2
AAAATGCT,0.126
